Experimental data pooled from the literature.
Compare with care: the assays were run in different laboratories.
ABL1 phosphorylated: Tyrosine-protein kinase ABL1, phosphorylated (ABL1, Homo sapiens, UniProt P00519)
ABL1 E255K phosphorylated: Tyrosine-protein kinase ABL1, phosphorylated (ABL1, Homo sapiens, UniProt P00519, E255K)

Cc1ccc(-c2c(/C=C(\C#N)C(=O)NC(C)C)n(CCCO)c3ncnc(N)c23)cc1  remaining binding (Tyrosine-protein kinase ABL1, phosphorylated (ABL1, Homo sapiens, UniProt P00519, F317I); cell-free assay, competition with immobilised ligand; 1 µM): 74%
CNS(=O)(=O)Nc1nccc(Cc2c(C)c3ccc(Oc4ncccc4F)cc3oc2=O)c1F  remaining binding (ABL1 phosphorylated; binding, competition with immobilised ligand; 10 µM): 94%
Nc1ncc2c(n1)-c1c([nH]c3ccc(C4=CCOCC4)cc13)CCC2  remaining binding (Tyrosine-protein kinase ABL1, non-phosphorylated (ABL1, Homo sapiens, UniProt P00519, F317I); binding, competition with immobilised ligand; 1 µM): 90%
COc1c(Cl)cccc1Nc1c(-c2ccncc2C#C[C@@]2(C)CCCN2C(=O)/C=C/CN(C)C)[nH]c2c1C(=O)NCC2  remaining binding (ABL1 phosphorylated; binding, competition with immobilised ligand; 3 µM): 77%
CCN1CCN(Cc2ccc(NC(=O)c3ccc(C)c(NC(=O)c4cncc(-c5cccs5)c4)c3)cc2C(F)(F)F)CC1  remaining binding (ABL1 (Homo sapiens, UniProt P00519, M351T); binding, competition with immobilised ligand; 1 µM): 0.4%
CN1CCN(Cc2ccc(NC(=O)c3cccc(C#Cc4cnc(N)c5ncccc45)c3)cc2C(F)(F)F)CC1  remaining binding (ABL1 E255K phosphorylated; cell-free assay, competition with immobilised ligand; 50 nM): 2.3%
C=CC(=O)N1CCc2ccc(-n3c(=O)ccc4cnc5ccc(-c6cnn(C)c6)cc5c43)cc21  remaining binding (Tyrosine-protein kinase ABL1, non-phosphorylated (ABL1, Homo sapiens, UniProt P00519, Q252H); KINOMEscan, item: (Q252H)-nonphosphorylated; 1 µM; reference: control): 76%
CNc1ccc(-c2n[nH]c3c2CCN(C(=O)c2ccccc2)C3)cc1  remaining binding (ABL1 phosphorylated; cell-free assay, competition with immobilised ligand; 10 µM): 27%
Cc1ccc(C(=O)Nc2cccc(C(F)(F)F)c2)cc1Nc1cncc(C(N)=O)c1  remaining binding (ABL1 (Homo sapiens, UniProt P00519, F317I); binding, competition with immobilised ligand; 1 µM): 13%
C=C1CCCCCCCCCC(CO)C1=O (stereo not shown)  remaining binding (ABL1 phosphorylated; cell-free assay, competition with immobilised ligand; 10 µM): 100%
CC(C)=CC1OC(C)(C)C2C=C3C(=O)C(Cl)=CC(O)C3C3C(O)C4OC4C(=O)C132 (stereo not shown)  remaining binding (Tyrosine-protein kinase ABL1, phosphorylated (ABL1, Homo sapiens, UniProt P00519, F317L); cell-free assay, competition with immobilised ligand; 10 µM): 86%
CC(=O)N1c2ccc(-c3ccc(CNC(=O)c4cn5cc(-c6cnc(N)nc6)nc(N6CCOCC6)c5n4)cc3)cc2CC[C@@H]1C  remaining binding (ABL1 phosphorylated; KINOMEscan; 10 µM): 62%
COc1ccc(NC(=O)Nc2ccc3c(c2)C(=O)N(C(C)CO)CC(C)C(CN(C)Cc2ccc4c(c2)OCO4)O3)cc1 (stereo not shown)  remaining binding (ABL1 E255K phosphorylated; binding, competition with immobilised ligand; 10 µM): 80%

Repeated from above:
CCN1CCN(Cc2ccc(NC(=O)c3ccc(C)c(NC(=O)c4cncc(-c5cccs5)c4)c3)cc2C(F)(F)F)CC1  remaining binding (ABL1 (Homo sapiens, UniProt P00519, M351T); binding, competition with immobilised ligand; 1 µM): 0.4%
